# Results gathered from unrelated publications.
# Every numbered part comes from another study and shows a few of its results, in no order. Substitutions count along the parent as printed.

# Series 1
# Target: RNA binding protein fox-1 homolog 2, RRM domain, GST-SBP tag (RBFOX2, Homo sapiens, UniProt O43251-10, residues 100-194)
# Technique: RNA Bind-n-Seq
# Molecule type: RNA
# Matrix: in vitro
# Concentration: 365 nM
# Setting: natural RNA segment, single round, ends assumed
# Relative to: no-protein control
# Reading: higher = stronger binding
# Constant ends, left off below: GGGAGUUCUACAGUCCGACGAUC … UGGAAUUCUCGGGUGCCAA
# Residues (chain): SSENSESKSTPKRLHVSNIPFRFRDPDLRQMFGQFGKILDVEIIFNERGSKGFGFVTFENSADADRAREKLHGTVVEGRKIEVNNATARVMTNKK
Strand,RBNS enrichment (R)
CAGCCGUGACAACACUCCUGUCAUAUUGGAGUCCAAAACUUGAAUUCUGGGUUGAAUUUUUUAAAAAUCAGGUACCACUUGAUUUCAUAUGGGAAAUUGAAGCAGGAAAU,0.395
AAUUUUAGAGGACAGAUAUUUGACCAAAAGACUAUCAACUUUAAACAUUUAUUUUAUGGUUUCUUGUCAAGAUUUAAUCUAAAUAUUUUAAAAGCAAUUCCAAGGAAGCA,1.49
AUAAUUUUCUUUCCUUAGAAACCUGAGAGAAUGCUAGUCAUAACUGUACUAGUUACUAUGAAAAUGGAAAUAAUUAUCUUAGAAUAUUUUCAAAGUAGAGCGUGAGCAUG,0.784
CUAUUAAAAUUGCCAUUUUAUUAAACAUUUUCAUGCACAGUAGAUUCAAGUUGUGUCUGAAAAUAUCUCUUGUGCUUUUUUGAUUUUGCUGACUUUAAAAGGAUUAAUCU,0.634
GCAGGACUGGAAGAACAGUGGAGCCCCGUGGGUCUCACCCUUUAAGGAUGCUGAGGCCUAGAGAUGGGAAGUGACUUGCUCAAGGUCACACAAUUGGAUAGUGACAUAGC,0.746
UCUUCCAUAAGAGUUCCCAAGCUCUGUCCACUGUUUGGCUAUGGGUGUCUCUGUCUGAGUUAGCUGCUGGGUGGAGCCUCACAUGUUCCUAUCUGUUACCAUAACAGAGU,0.262
CGGUUCAGGGCAGUGCUCAGCAGCUGUGUGCUCCCCUGGUUGGGUCAUUAACCCUGCAGCUGCCUGGUCUUGUCUGCUGGAGGGAGGAGAACACAGCCAUCUUGGCCCAC,0.493
GCCUGAUUUCGUCCAUAUUCUAGACUCUUAAGCUUGUCAAAUUCCAGAAAUGGAAAAAACUCUGCAAGAGAGUCUUGCUUUCAAGGAGAAAGGAAAAUGGCUUUGAAAAU,0.892

# Series 2
# Target: CCNB1, cyclin fold, Cln2 fusion (human)
# Technique: yeast growth competition, sequencing
# Matrix: yeast
# Setting: strong parent motif
# Relative to: not given
# Reading: higher = stronger binding
# Parent: BRCA2 docking peptide (human); PSIKRNLLNEFDR
Variant,normalised enrichment score
E10R,-0.135
R13W,2.62
L8I,1.82
N9D,3.08
I3G,0.349
S2V,0.547
L8K,0.704
I3W,1.71
E10Y,0.788
L8C,1.09
K4Y,2.31
R5E,-1.04
N6W,0.325
E10K,-0.651
K4H,0.786
L8S,1.38
L8T,0.885
L8N,0.565
E10G,0.327
F11D,0.175

# Series 3
# Target: Histone acetyltransferase KAT6A, winged helix 2, GST fusion (KAT6A, Homo sapiens, UniProt Q92794, residues 85-181)
# Technique: protein binding microarray
# Molecule type: double-stranded DNA, one strand shown
# Matrix: in vitro
# Concentration: not given
# Setting: 8-mer, flanks averaged, mean of 2 arrays, mostly near background
# Relative to: not given
# Reading: higher = stronger binding
# Target sequence (chain): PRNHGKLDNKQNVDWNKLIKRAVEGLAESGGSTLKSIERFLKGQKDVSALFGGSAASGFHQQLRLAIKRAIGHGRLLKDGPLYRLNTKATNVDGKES
Strand,E-score
ATTTTATA,0.195
CTCATGTC,-0.0266
AGTGCAAA,0.0859
CTGCGGTA,0.0762
CGTACTCC,0.00928
CCTGCAGG,0.201
CGCGGCCG,0.222
TATGTTGA,-0.14
CCACGCCA,-0.00312
TCGCAAAA,0.104
CACACGAA,0.137
ATAAGCAG,0.0762
AGCAACAA,0.205
TCCCCGAA,0.0611
CAGGGACA,0.0556
ATGGTGGC,-0.195
ACATTCGT,-0.111
AAGAGGGT,-0.0708
ACGTAAGA,-0.0583
CGACCCCA,0.0555
ATTGTGAG,0.0483
TACTACAA,-0.0845

# Series 4
# Target: Centromere-binding protein 1, full length, His-tagged (CBF1, Saccharomyces cerevisiae, UniProt P17106, residues 1-351)
# Chain of UniProt P17106 (whole entry, looked up): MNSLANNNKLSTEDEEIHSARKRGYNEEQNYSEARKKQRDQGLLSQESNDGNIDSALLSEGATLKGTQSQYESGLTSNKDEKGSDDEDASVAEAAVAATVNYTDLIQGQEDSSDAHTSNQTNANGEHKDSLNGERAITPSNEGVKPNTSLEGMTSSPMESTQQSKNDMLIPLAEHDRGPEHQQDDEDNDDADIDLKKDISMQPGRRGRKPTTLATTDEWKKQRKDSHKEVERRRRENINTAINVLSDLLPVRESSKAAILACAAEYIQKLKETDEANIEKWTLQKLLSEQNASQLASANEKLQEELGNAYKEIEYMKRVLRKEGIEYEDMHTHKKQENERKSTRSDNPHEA
# Technique: competition protein-binding microarray
# Molecule type: double-stranded DNA, one strand shown
# Matrix: in vitro
# Concentration: 2 µM
# Setting: whole 60-bp probe, lowest competitor level
# With: Pho4 competitor, 0.05 µM
# Reading: higher = stronger binding
# Constant ends, left off below: … GTCTTGATTCGCTTGACGCTGCTG
Strand,fluorescence intensity [a.u.]
ACTCCGGTGTTGAAGTCCGTGTCTGTCCAACCAAGA,65.1
GAGGGCACTTTCTGGCACATGCGGCCGCAACAAGGA,80.3
GCACAAGGAATTGCTGGCGTGCTAATTCTCGACCTT,69.6
CATACCCAACCTTGTCACAAGACTTAAGATATTTGT,168
TTTCTTCCTCTTGACAGCGTGCAAAGCCATTGATAG,84.5
AGACAGTACGATAGCGACGTGCCAGTGTTATTGATG,78.8
TTGGATCTGCAAAATCACATGATTGCCCCAGTACTT,861
TGATTGTGGAATTGGCAGGCGTGAAGTTCAAATCCG,91.5
CGAAGTTTGCGGCGTCACATGATAAAATTCCATTAT,1690
AGGCGCTCGCTCTCTTCCGTGGGTACCTGCTATATA,55.6
CTTTCCCGATCTTTTCACGTGGACTTAGCACATTTG,653
GAAGATAGCCACCATCACGTGAAGGCCATCCCAAGA,2030
CATACCCAACCTTGGCCTGTGGGTGAAGATATTTGT,46.7
GCCGAACTCTTTTATCATGTGATATGAATATGTTGG,1880
TTGCGTTTACGCTCGCGCGTGGGACAACTAACGCAA,63
GTCCACACATTGTTCCACGTGTAGCTTACCCATGTA,498
TGCGCAACAACTTTTCACGTGGCGTTATGTCTAGAA,801
CTAACGAAGGTTTGTAGCGTGGGTGACAAGCCAAGT,65.8
CGGGGTTAAGTTTGCTAGGTGGGTGGCTTGCAGCAG,73.8
